Experimental data pooled from the literature.
Numbered parts are unrelated; each lists some results of a single study. Changes are numbered by the printed parent chain.

Block 1 — method: RNA Bind-n-Seq; molecule type: RNA; medium: in vitro; concentration: 100 nM; relative to: input RNA pool; reading: higher = stronger binding; measurement: bound/input enrichment
Target: RING finger protein unkempt homolog, zinc fingers 1-6, SBP tag (UNK, Homo sapiens, UniProt Q9C0B0, residues 30-357)
UniProt Q9C0B0, sequence (30-357, looked up): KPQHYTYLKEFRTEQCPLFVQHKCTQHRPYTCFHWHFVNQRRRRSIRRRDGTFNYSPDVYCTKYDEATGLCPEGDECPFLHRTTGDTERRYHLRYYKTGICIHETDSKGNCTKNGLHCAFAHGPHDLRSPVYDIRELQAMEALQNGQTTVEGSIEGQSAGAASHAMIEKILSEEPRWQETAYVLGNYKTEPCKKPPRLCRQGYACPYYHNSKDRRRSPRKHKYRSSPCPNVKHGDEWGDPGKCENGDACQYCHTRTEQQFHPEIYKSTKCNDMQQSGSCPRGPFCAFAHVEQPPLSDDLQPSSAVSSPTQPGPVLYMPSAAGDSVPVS
Setting: RNA with constant flanks, vertebrate orthologous sites, ends assumed
Sequence = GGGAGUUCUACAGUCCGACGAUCGUAAUGCAUUUUGUGACUUGGAUGUGGUCUGCACGGGAAGCUGCUGGCCUCUCCACAACACAUUCAAUUUUUGUCUUUUUUUAAGAAGUUAAAACUGAAUUUAAUUUACUAAAACUGUAACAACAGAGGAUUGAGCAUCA; value = 0.31 ratio
Sequence = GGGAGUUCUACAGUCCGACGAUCAAACGCAAUGGUUGAAGGCUCUGAGCUCAAAAAGAUUCGAUCCAACUCUAGGGUGUAUCACCGAUAUUUUCUUUUAGAUGCGGAUAUGCAAUCUCUACGCUGGGAACCUUCAAAAAAGGACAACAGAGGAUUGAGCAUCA; value = 0.25 ratio
Sequence = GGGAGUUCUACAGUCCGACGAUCAAGAAAUGCUGGCUGCCAACCCUCAGGAUCGUCCAGAUGCUUUUGAACUAGAACUCCGAUUAGUACAAAUUGCGUUUAAAGAUAGCAGCUGGGAAACGUGACACAUAUAUUGUUUGCAAACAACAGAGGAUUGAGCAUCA; value = 2.54 ratio
Sequence = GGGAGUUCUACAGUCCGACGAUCGCUUUAACCAAUUAUGUCUGUAAAUGUAUAUUGAGAGAAUUGAAGUAUUUAUAAACAGAGUGAUUUAUUUAAGGAAAAGCUCAUUCCUCUUUCAUAUGGUGGUCUAUGUUAAUUCCAUGUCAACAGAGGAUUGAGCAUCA; value = 1.06 ratio
Sequence = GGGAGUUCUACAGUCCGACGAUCGGGCAGCAGGCGGGGUCAUUCCAUGCCCUAGCCUUGCCUCCCCUUCCUGCCACCGGCUCCUAGUUAUUUUUUUUUUAACCACCAUGUGAUUAAGGUCGGCGCUGCCUCCUCCCGACCCGCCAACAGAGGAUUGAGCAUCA; value = 1.54 ratio
Sequence = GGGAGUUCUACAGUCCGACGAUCAAUGACAGCUAUGCAGCAUCAGUUUUCAAUAUUGUUGAAAUUGUUCUUGGAUUUGUACUUGUCACUUUGUUCACUUCCCUAAAAACAAAAUUUAAAUCUGGAUUUAAGGGAGUUAAAUCUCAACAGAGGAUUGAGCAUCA; value = 0.197 ratio
Sequence = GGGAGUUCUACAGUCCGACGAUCGACUAGAGUCUUAAUAAAUUACUCUGACAUUCUUAAAGUUCAUUUUGAAGGACGGAUCAGACUGUAGGAUGGUGCUGGUUUCUUCAGAUUUGUGUACUGUAUCUAAAGUUACAUUUUGCACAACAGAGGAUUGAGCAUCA; value = 0.558 ratio
Sequence = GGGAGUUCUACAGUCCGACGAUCUCUGUAGAGAACAAUUUUCACUGAAGCCAUUGGCAAAUUCCCCCCCCCACCAGACUUUUCUUUGGAGCUCUUUAAUUUCAUACAAUCUUGCUGUGUCGGUCAUUGUUAGCCCUGAAUCCACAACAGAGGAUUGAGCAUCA; value = 1.09 ratio
Sequence = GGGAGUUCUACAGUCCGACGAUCACCCCCCACUCCCUGUGAGAGGGAAUGGGGGAAGCCUGAUGACCCUCAGCUGUUCCAAUCUAGUAUUUUUUUUUCUUUUUUAAAAUUACUGUAUUUAUUAUGACGAUGGUGACUCCCCAGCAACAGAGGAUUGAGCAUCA; value = 1.94 ratio
Sequence = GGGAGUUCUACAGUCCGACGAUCGGUUGAUGUUCUGAAGAACCACUUGGUAAAAGAAGGUCGAGUAGAUGAAGAAAUUGCACUUAGAAUUAUCAAUGAGGGUGCUGCCAUCCUUCGGAGAGAGAAAACCAUGAUAGAAGUAGACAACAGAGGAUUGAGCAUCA; value = 0.467 ratio
Sequence = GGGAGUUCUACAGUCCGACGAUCAAGGGGAUGGCCCGAUCCCACCACUGUUUAUUCUGUAAACUUCAACCUGUACAUAACGUUUAGCAUUCCUAUUGUAACAAAAUUAAUUUUUACAAAAUAAAUUAUAUUUCCUAGUCUAAUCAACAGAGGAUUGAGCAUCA; value = 1.06 ratio

Block 2 — method: DHFR PCA, deep sequencing; medium: yeast; with: (+)-ABA 1.4 µM; relative to: wild-type fitted maximum; reading: higher = stronger binding; measurement: relative binding score
Target: ABI1, truncated, D143A, DHFR fusion (Arabidopsis thaliana)
Setting: methotrexate growth selection, single substitutions
Starting sequence: PYL1, truncated, DHFR fusion (Arabidopsis thaliana); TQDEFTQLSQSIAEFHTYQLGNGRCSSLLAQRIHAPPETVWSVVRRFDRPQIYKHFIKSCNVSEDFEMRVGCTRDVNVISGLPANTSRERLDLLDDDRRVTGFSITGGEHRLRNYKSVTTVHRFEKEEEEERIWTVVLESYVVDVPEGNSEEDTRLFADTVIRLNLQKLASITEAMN; partner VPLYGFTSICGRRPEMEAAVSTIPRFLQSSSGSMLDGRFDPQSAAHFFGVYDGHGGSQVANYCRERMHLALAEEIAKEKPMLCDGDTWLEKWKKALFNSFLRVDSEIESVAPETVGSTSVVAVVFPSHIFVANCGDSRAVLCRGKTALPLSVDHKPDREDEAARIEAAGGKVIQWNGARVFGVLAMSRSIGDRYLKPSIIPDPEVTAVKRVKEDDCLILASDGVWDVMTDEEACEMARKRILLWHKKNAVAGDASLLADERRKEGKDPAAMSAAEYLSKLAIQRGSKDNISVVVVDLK
Change = D96R; value = -1.25%
Change = T154H; value = -17.7%
Change = R163N; value = -6.97%
Change = T173R; value = 0.289%
Change = S104E; value = -3.2%
Change = I133S; value = 69.7%
Change = L94W; value = 31.4%
Change = A175V; value = 29.2%
Change = L20R; value = 61.2%
Change = W41Q; value = 5.92%
Change = M176Y; value = 28.1%
Change = T39W; value = 7.09%
Change = T101M; value = 70.6%
Change = G108M; value = -4.77%
Change = T17I; value = -27.5%
Change = C72I; value = 33.6%
Change = E67P; value = 29.4%
Change = D153N; value = -3.86%
Change = I133N; value = 72.4%
Change = R123N; value = 51%
Change = V62L; value = 48%
Change = G148W; value = -3.18%
Change = K54Y; value = -5.46%
Change = K54T; value = -4.61%
Change = T120K; value = 1.64%

Block 3 — method: RNA Bind-n-Seq; molecule type: RNA; medium: in vitro; concentration: 200 nM; setting: whole 134-nt RNA, ends assumed; with: 150 mM LiCl; relative to: input library; reading: higher = stronger binding; measurement: log2 enrichment; each molecule: 7-deaza-guanosine replaces G
Target: Fragile X messenger ribonucleoprotein 1, C-terminal low-complexity region (Fmr1, Mus musculus, UniProt P35922)
Sequence = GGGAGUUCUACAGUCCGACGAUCUCCUCAAGUCCUGUGCUACACAUCGUAUGUACCGAAUCGGAGGAAAGGAGGAAAGUAUUAUGUUACGCCGUUCGGAUCUGCACUUCCAGCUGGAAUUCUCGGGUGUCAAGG; value = -2.11
Sequence = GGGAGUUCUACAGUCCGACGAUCAAGUCCUGUGCUACACAUCGUAUGUACCGAAUCGGGAGGGUUUUUGGGAAAAAGGGAAAGUAUUAUGUUACGCCGUUCGGAUCUGCACUUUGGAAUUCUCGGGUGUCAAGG; value = -0.492
Sequence = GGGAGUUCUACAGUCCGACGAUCUCCUCAAGUCCUGUGCUACACAUCGUAUGUACCGAAUCGGGAGGGAGGGAGGAAAGUAUUAUGUUACGCCGUUCGGAUCUGCACUUCCAGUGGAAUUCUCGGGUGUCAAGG; value = -0.856
Sequence = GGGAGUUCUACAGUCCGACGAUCUGUGCUACACAUCGUAUGUACCGAAUCGGGGUUUUUUUGGGGAAAAAGGGGAAAAAAAGGGGAAAGUAUUAUGUUACGCCGUUCGGAUCUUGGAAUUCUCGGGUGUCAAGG; value = -1.07
Sequence = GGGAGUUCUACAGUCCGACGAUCUGGCCCUGGUGGCAUGCGGGGAGGAAGAGGUGGCCUCAUGGAUCGUGGUGGUCCCGGUGGAAUGUUCAGGGGUGGCCGUGGUGGAGACAGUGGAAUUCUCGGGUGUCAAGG; value = -0.563
Sequence = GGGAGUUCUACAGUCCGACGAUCUCCUGUGCUACACAUCGUAUGUACCGAAUCAAAUUUUUUUAAAUUUUUUUAAAUUUAAAAAAGUAUUAUGUUACGCCGUUCGGAUCUGCAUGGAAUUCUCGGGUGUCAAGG; value = -2.87
Sequence = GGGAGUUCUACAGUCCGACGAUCGCAGGAAGUAAAAACAAAUGGAAAUGCUUCGGAUAGUGGCAGGGGUGGGGGUUGCUAAGGACAGGGUGGGAUGGGAGUGGGUAAAGAGUUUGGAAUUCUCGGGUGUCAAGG; value = 1.07
Sequence = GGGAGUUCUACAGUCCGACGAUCCUCAAGUCCUGUGCUACACAUCGUAUGUACCGAAUCGGUUUGGAGGAAAAAGGAAAGUAUUAUGUUACGCCGUUCGGAUCUGCACUUCCAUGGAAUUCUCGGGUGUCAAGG; value = -0.333
Sequence = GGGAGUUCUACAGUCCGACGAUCCCUGUGCUACACAUCGUAUGUACCGAAUCGGUUUUUUUGGGGUUUUUUUGGGUUUUUUUGGAAAGUAUUAUGUUACGCCGUUCGGAUCUGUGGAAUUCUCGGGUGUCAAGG; value = 0.891
Sequence = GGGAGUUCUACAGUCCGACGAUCAAGUCCUGUGCUACACAUCGUAUGUACCGAAUCGGGUGGGUUUUUGGGAAAAAGGGAAAGUAUUAUGUUACGCCGUUCGGAUCUGCACUUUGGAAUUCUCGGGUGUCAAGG; value = -0.638
Sequence = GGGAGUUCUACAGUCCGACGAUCUGGGAGGUGGAUUUUGUUUAUUUCUUUAGCUCAUUUCCAGGGGUGGGAAUUUUUUUUUAAUAUGUGUCAUGAAUAAAGUUGUUUUUGAAAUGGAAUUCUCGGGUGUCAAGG; value = -0.792

Block 4 — target: CCND2, cyclin fold, Cln2 fusion (human); method: yeast growth competition, sequencing; medium: yeast; setting: weak parent motif; relative to: not given; reading: higher = stronger binding; measurement: normalised enrichment score
Starting sequence: SCAPER docking peptide (human); SNARRSLNFGGST
Change = SNARRSLNFGGIT [S12I]; value = 0.131
Change = SNAERSLNFGGST [R4E]; value = -0.0728
Change = SNARRSLNFGLST [G11L]; value = 0.259
Change = SNARFSLNFGGST [R5F]; value = 0.42
Change = SNARRSLNFTGST [G10T]; value = 0.385
Change = SNARRSLNLGGST [F9L]; value = 0.333
Change = STARRSLNFGGST [N2T]; value = 0.565
Change = SNARRSLNSGGST [F9S]; value = 0.213
Change = SPARRSLNFGGST [N2P]; value = 0.459
Change = SNARRSLNFMGST [G10M]; value = 0.275
Change = SNALRSLNFGGST [R4L]; value = -0.305
Change = SNARRALNFGGST [S6A]; value = 0.951
Change = SNGRRSLNFGGST [A3G]; value = -0.2
Change = SNARRSLNFGGPT [S12P]; value = 0.864
Change = SNARRLLNFGGST [S6L]; value = 0.658
Change = SNARRSLNCGGST [F9C]; value = -0.255
Change = SNARRSLNFAGST [G10A]; value = 0.596
Change = SNARRSTNFGGST [L7T]; value = 0.293
Change = SNASRSLNFGGST [R4S]; value = -0.107
Change = SNARRSLNFGHST [G11H]; value = 0.0939
Change = SRARRSLNFGGST [N2R]; value = 0.0558
Change = SNARRYLNFGGST [S6Y]; value = 0.426
Change = SIARRSLNFGGST [N2I]; value = 0.209
Change = SNARNSLNFGGST [R5N]; value = -0.082
Change = SNARRDLNFGGST [S6D]; value = 0.191

Block 5 — target: FOSL2, bZIP domain (human); method: DHFR protein complementation; medium: yeast; relative to: wild-type JUN-FOS pair; reading: higher = stronger binding; measurement: binding fitness
Setting: single substitutions, most at no-binding floor
Starting sequence: JUN, bZIP domain (human); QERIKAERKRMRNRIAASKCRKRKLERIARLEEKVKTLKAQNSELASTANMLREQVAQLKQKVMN; partner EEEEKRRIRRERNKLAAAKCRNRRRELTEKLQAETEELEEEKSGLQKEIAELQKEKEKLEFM
Change = V56R; value = -1.29 natural log
Change = A57G; value = 0.0111 natural log
Change = K34H; value = 0.113 natural log
Change = A29Y; value = -0.087 natural log
Change = E54G; value = 0.0562 natural log
Change = L52Y; value = -0.477 natural log
Change = T37P; value = -1.14 natural log
Change = S47L; value = 0.106 natural log
Change = K34Q; value = 0.0221 natural log
Change = L45E; value = -1.29 natural log
Change = L52A; value = -1.37 natural log
Change = Q55W; value = -0.482 natural log
Change = E54R; value = -0.00952 natural log
Change = S43Q; value = 0.135 natural log
Change = E32S; value = 0.0116 natural log
Change = L38S; value = -0.808 natural log
Change = L59S; value = -1.24 natural log
Change = L38E; value = -1.35 natural log
Change = E32H; value = -0.105 natural log
Change = T37A; value = 0.124 natural log
Change = T37R; value = 0.0872 natural log
Change = A46G; value = -0.153 natural log
Change = L45I; value = -0.801 natural log

Excerpt of the above (block 5):
Change = S43Q; value = 0.135 natural log
Change = E32S; value = 0.0116 natural log
Change = L38S; value = -0.808 natural log
Change = L59S; value = -1.24 natural log
Change = L38E; value = -1.35 natural log
Change = E32H; value = -0.105 natural log
Change = T37A; value = 0.124 natural log
Change = T37R; value = 0.0872 natural log
Change = A46G; value = -0.153 natural log
Change = L45I; value = -0.801 natural log
